Measurements gathered from unrelated publications.
Parts stem from different laboratories: compare values within a part only.
UniProt Q00537, sequence (whole entry, looked up): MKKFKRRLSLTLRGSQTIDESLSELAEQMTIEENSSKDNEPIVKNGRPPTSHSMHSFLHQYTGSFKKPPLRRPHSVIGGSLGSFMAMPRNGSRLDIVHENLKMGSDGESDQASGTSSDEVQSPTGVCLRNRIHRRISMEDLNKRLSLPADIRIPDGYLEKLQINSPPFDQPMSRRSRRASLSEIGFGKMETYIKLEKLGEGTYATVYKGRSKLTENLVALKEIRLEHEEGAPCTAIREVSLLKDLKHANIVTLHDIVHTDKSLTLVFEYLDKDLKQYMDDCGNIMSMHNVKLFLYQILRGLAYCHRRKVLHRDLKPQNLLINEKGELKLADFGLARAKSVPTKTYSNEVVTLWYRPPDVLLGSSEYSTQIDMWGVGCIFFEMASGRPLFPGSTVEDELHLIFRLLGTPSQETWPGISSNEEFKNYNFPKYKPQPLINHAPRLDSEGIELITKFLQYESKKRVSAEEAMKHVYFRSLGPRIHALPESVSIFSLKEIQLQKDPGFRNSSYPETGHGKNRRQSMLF
UniProt Q15375, sequence (whole entry, looked up): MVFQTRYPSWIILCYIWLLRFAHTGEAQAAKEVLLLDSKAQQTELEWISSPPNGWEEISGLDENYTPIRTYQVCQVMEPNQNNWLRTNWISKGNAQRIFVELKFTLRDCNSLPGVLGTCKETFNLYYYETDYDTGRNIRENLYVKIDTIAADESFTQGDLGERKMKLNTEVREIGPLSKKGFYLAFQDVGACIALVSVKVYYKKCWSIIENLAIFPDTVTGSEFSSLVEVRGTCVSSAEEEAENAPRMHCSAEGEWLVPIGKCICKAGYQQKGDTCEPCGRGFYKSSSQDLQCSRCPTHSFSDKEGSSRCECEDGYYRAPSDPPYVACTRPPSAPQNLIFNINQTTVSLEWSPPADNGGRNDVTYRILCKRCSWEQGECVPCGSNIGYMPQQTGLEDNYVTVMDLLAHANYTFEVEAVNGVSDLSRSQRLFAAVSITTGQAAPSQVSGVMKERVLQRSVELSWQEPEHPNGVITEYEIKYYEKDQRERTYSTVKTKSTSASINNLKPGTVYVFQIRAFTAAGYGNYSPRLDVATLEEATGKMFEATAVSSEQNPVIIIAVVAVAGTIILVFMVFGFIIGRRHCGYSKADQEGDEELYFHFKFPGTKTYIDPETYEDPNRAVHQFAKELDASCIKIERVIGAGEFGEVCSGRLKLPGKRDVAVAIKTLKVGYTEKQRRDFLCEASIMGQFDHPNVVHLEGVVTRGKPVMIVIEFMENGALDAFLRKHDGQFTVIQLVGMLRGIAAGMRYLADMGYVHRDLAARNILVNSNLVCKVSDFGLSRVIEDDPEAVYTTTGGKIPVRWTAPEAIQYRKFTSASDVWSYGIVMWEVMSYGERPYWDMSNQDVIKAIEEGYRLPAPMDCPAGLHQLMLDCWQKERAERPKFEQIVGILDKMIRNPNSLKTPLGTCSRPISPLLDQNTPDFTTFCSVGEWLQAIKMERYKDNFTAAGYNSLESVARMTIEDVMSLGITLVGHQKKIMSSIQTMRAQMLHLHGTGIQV
UniProt Q15831, sequence (whole entry, looked up): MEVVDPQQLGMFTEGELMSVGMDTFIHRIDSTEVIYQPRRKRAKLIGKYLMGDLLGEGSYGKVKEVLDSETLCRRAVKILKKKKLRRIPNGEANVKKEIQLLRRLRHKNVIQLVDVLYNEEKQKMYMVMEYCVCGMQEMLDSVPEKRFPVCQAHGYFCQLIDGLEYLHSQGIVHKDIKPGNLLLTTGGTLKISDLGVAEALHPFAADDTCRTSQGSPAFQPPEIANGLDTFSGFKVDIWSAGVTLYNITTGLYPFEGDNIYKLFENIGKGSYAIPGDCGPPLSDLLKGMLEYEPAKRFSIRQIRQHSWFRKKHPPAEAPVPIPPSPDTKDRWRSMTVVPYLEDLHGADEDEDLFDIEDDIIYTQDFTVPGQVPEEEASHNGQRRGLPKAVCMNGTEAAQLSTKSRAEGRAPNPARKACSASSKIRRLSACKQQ

Set 1
Structure (SMILES): Nc1cnc(N2CCc3cc(S(=O)(=O)Nc4c(F)cc(Cl)cc4F)cc(N4CCCC4=O)c32)nc1
Read-out: cell-free assay
Method: competition with immobilised ligand
Concentration: 1 µM
target | remaining binding [%]
EPHA7 (Homo sapiens, UniProt Q15375) | 85
CDK17 (Homo sapiens, UniProt Q00537) | 100
STK11 (Homo sapiens, UniProt Q15831) | 100

Set 2
Target: PABPC1L2, full length, GST fusion (mouse, UniProt A0ABA7IW68)
Method: RNAcompete
Molecule type: RNA
Sample: in vitro
Concentration: 20 nM
Setting: 7-mer, probes averaged, single round
Relative to: mean of 7-mers
Direction: higher = stronger binding
Target sequence (chain): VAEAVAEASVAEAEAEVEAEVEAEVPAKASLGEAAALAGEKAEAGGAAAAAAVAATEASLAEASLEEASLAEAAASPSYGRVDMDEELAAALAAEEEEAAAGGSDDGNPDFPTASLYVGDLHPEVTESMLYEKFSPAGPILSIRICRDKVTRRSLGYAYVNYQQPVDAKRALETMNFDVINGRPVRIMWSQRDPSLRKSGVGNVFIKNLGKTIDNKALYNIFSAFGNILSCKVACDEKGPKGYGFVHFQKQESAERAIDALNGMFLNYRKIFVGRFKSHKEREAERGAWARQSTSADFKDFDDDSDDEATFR
Strand | 7-mer Z-score
AGCCGAG | -0.238
CACUUAC | -0.164
UCUGGAA | -0.0192
AGGUGUC | -0.101
UGAAUUG | -0.164
GGUGCGC | 0.173
ACUAUUG | -0.162
UGACAAC | -0.115

Set 3
Target: Fragile X messenger ribonucleoprotein 1, C-terminal low-complexity region (Fmr1, Mus musculus, UniProt P35922)
Method: RNA Bind-n-Seq
Molecule type: RNA
Sample: in vitro
Concentration: 200 nM
Setting: whole 134-nt RNA, ends assumed
With: 150 mM LiCl
Relative to: input library
Direction: higher = stronger binding
Library: 7-deaza-guanosine replaces G
All sequences stand within: GGGAGUUCUACAGUCCGACGAUC … UGGAAUUCUCGGGUGUCAAGG
Strand | log2 enrichment
ACCAUGCAGGUGGGCAUCUUUGGGAAGUGGGGCAAGGGGGGGAUAGGGAGGGGGGUAACACUUUGGGAACAGGUGGUCCCUGGUCGUUUC | 1.32
CACAGACAACACGCACCCACACAGACACAGAGGGAAGGGGUUGGGAUAGGGACAGGGUGCACAGCAGGGCGGGGUAGGACCCCAGCCCCU | 0.839
CAAGUCCUGUGCUACACAUCGUAUGUACCGAAUCGGGAGGGUUUUUUUGGGUGGGAAAGUAUUAUGUUACGCCGUUCGGAUCUGCACUUC | -0.456
AGUCCUGUGCUACACAUCGUAUGUACCGAAUCGGAAAAAAAGGAAAAAAAGGUUUGGAAAGUAUUAUGUUACGCCGUUCGGAUCUGCACU | -3.59
CAAGUCCUGUGCUACACAUCGUAUGUACCGAAUCGGGUUUUUUUGGGAGGGAGGGAAAGUAUUAUGUUACGCCGUUCGGAUCUGCACUUC | -0.0925
AGUCCUGUGCUACACAUCGUAUGUACCGAAUCAAACCCCCAAAUUUUUAAACCCAAAAAAGUAUUAUGUUACGCCGUUCGGAUCUGCACU | 0.792
UCAAGUCCUGUGCUACACAUCGUAUGUACCGAAUCGGGGUUGGGUUGGGGUUGGAAAGUAUUAUGUUACGCCGUUCGGAUCUGCACUUCC | -0.696
AGUCCUGUGCUACACAUCGUAUGUACCGAAUCGGGCCCCGGGCCCCGGGCCCCGGGGAAAGUAUUAUGUUACGCCGUUCGGAUCUGCACU | -3.2

Single results of other studies
SMILES | system | endpoint | result
CCOC(=O)[C@@H]1CSCC(=O)N[C@@H](CC)C(=O)N(C)[C@@H](C)C(=O)N[C@@H](CC(C)C)C(=O)N2CCC[C@H]2C(=O)N(CC)CC(=O)N[C@@H](CC(C)C)C(=O)N(C)[C@@H](C)C(=O)N[C@@H](CC(C)C)C(=O)N1C | hydrocarbon/water | logD | 0.843

For quick reference, copied from above (set 2):
Strand | 7-mer Z-score
GGUGCGC | 0.173
